Assay results pooled from the literature.
Numbered parts are unrelated; each lists some results of a single study. Values joined by “and” are separate records of one study, mostly repeats; a detail may differ.
Sequence of UniProt O00141 (whole entry, looked up): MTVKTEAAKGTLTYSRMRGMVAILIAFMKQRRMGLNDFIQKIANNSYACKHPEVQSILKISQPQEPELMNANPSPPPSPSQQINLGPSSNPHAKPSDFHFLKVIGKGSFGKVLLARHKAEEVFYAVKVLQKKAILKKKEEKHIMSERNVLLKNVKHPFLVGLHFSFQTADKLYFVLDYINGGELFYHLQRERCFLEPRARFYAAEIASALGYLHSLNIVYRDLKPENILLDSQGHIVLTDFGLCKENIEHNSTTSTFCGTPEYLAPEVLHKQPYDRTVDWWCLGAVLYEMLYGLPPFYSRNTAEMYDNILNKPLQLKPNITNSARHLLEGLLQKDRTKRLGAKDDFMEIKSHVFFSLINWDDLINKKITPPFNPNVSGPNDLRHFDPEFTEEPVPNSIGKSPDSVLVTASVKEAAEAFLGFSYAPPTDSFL
Sequence of UniProt P22455 (whole entry, looked up): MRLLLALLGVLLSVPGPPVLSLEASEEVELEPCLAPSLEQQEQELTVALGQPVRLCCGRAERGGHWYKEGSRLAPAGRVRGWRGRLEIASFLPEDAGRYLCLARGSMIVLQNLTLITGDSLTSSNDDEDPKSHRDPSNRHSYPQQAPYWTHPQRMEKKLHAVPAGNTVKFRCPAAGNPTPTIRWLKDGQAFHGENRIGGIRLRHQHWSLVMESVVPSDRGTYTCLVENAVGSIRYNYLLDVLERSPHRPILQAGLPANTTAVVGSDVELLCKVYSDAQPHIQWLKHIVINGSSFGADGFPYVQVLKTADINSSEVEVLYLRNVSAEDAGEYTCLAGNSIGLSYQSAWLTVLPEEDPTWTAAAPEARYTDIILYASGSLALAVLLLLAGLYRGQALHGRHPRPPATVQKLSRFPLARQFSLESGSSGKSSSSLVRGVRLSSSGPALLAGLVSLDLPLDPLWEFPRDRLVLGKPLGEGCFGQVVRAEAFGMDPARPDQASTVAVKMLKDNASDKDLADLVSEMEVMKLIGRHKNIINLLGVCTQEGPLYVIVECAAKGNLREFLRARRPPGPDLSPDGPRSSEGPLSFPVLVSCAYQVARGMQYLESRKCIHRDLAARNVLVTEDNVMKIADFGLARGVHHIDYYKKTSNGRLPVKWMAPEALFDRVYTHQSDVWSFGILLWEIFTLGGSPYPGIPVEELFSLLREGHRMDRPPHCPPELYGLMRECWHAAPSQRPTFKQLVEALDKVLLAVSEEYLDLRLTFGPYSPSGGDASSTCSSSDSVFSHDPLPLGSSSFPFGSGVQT
Sequence of UniProt Q15375 (whole entry, looked up): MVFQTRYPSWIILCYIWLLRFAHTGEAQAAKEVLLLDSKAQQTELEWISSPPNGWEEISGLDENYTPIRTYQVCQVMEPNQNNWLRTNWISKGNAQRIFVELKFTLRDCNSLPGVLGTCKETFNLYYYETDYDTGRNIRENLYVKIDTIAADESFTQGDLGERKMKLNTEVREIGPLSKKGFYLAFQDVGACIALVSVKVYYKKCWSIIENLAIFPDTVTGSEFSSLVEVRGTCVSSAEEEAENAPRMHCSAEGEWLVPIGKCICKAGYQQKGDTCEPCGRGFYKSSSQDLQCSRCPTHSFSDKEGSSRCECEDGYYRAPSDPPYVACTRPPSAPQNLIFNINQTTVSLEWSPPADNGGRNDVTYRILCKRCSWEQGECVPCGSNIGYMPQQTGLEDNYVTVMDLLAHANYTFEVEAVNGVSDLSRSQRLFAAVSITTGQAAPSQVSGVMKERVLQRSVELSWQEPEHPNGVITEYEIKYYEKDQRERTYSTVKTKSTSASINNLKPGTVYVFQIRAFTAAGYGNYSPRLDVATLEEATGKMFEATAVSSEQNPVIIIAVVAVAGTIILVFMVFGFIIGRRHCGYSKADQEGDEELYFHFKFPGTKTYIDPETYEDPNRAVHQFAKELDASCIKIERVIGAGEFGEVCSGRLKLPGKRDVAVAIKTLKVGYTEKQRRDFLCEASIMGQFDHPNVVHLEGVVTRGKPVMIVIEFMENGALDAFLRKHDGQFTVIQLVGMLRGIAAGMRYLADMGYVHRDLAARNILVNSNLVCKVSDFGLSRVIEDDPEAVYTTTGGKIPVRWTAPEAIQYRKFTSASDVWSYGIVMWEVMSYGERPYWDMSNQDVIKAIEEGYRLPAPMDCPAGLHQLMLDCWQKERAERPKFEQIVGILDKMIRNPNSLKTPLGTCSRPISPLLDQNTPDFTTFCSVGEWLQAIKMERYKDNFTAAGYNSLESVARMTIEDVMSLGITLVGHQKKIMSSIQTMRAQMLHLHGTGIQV
Sequence of UniProt Q9UPE1 (whole entry, looked up): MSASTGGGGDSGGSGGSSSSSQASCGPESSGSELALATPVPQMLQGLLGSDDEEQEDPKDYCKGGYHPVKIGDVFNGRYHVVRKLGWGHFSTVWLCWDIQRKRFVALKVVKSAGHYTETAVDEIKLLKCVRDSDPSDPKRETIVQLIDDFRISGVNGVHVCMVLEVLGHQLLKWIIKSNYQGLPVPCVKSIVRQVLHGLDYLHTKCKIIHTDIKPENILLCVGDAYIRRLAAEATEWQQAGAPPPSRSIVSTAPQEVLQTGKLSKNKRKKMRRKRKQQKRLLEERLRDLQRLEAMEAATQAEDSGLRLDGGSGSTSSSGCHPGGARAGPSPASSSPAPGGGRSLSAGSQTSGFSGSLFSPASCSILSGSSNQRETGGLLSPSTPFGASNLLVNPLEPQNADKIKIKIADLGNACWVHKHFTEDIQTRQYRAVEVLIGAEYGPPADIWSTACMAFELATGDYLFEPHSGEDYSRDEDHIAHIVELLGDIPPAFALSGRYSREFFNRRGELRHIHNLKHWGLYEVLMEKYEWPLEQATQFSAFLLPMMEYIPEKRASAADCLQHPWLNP
Sequence of UniProt P51813 (whole entry, looked up): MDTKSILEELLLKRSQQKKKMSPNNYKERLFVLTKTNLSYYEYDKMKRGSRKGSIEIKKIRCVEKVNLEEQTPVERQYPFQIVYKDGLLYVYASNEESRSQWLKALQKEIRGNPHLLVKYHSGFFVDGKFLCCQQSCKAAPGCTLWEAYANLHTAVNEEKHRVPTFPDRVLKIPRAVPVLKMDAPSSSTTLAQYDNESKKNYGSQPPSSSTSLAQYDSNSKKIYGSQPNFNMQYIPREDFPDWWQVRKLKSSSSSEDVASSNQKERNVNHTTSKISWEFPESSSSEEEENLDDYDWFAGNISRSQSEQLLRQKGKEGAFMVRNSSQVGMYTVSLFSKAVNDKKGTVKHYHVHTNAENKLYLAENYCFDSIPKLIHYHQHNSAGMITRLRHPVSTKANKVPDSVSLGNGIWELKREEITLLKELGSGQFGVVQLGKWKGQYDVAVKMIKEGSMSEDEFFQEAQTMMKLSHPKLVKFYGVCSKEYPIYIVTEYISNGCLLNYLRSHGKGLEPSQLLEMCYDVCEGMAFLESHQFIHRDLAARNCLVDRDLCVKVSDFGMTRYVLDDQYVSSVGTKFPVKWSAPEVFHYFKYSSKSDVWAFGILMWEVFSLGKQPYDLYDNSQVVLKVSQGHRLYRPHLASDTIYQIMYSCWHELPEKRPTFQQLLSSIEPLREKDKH
Sequence of UniProt Q9UQB9 (whole entry, looked up): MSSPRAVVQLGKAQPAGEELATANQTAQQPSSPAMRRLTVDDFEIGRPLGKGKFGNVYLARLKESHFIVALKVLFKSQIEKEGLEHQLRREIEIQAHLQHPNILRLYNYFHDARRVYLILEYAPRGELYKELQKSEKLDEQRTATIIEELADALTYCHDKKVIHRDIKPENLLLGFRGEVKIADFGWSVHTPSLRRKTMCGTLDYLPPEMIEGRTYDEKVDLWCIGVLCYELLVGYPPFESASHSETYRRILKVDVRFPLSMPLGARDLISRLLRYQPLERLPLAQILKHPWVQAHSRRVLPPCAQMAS

Sample 1 — organism: Staphylococcus aureus; strain: USA300; concentration: 2 x MIC
SMILES: CCCCC[C@@H](O)CC(=O)N[C@@H]1C(=O)N[C@H](CCCNC(=N)N)C(=O)N[C@@H](CO)C(=O)NCC(=O)N(C)[C@H](Cc2ccccc2)C(=O)N[C@@H](CC(C)C)C(=O)N[C@H](CCCNC(=N)N)C(=O)N[C@@H](CO)C(=O)N[C@H]([C@H](C)O)C(=O)N[C@H](Cc2c[nH]c3ccccc23)C(=O)N[C@@H]([C@@H](C)CC)C(=O)NCC(=O)O[C@@H]1C
For 30 min: viable cells read 2000 CFU/mL and 1700 CFU/mL and 1500 CFU/mL.
It gave 600 CFU/mL and 800 CFU/mL and 400 CFU/mL for viable cells (300 min).
0 min — viable cells: 4.4e+08 CFU/mL and 4e+08 CFU/mL and 3.9e+08 CFU/mL.
For 15 min: viable cells read 3500 CFU/mL and 3300 CFU/mL and 3900 CFU/mL.

Sample 2 — observed: enzyme activity; action: inhibitor; concentration: 10 µM
Target: Calcium/calmodulin-dependent protein kinase type II subunit alpha (CAMK2A, Homo sapiens, UniProt Q9UQM7)
Sequence of UniProt Q9UQM7 (whole entry, looked up): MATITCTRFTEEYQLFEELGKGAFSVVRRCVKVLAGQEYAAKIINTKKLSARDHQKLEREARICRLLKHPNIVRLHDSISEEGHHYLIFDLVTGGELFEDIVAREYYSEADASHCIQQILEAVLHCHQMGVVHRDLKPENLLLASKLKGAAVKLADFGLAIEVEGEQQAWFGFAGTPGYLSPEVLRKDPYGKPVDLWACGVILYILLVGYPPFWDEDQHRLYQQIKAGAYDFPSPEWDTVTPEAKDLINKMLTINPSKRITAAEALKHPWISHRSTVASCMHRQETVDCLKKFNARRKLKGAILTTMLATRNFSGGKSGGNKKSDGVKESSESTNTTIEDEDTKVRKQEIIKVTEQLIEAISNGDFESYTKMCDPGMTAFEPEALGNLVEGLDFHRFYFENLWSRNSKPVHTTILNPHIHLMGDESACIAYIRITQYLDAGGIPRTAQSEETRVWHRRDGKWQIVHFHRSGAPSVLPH
The inhibition of `COc1ccc(C(=O)N2CCCC2=O)cc1` is reported as -12%.
`C=C[C@H]1CN2CC[C@H]1C[C@H]2[C@H](O)c1ccnc2ccccc12` gave an inhibition of -15%.
`NC(=O)CN1CC(O)CC1=O` (centres unmarked) gave an inhibition of -2%.
For `O=C1C=CC[C@@H]2[C@H]3CCC[N@+]4([O-])CCC[C@@H](CN12)[C@@H]34`, the inhibition was -5%.
The inhibition of `Cc1nccc2c1[nH]c1ccccc12` is reported as 8%.
`CC[C@H]1C[C@H]2CN3CCc4c([nH]c5ccccc45)[C@](C(=O)OC)(C2)[C@H]13` has an inhibition of -28%.
The inhibition of `C[S@@+]([O-])CCCCN=C=S` is reported as 15%.
`CO[C@H]1CC[C@@H](O[C@H]2C[C@H]([C@]3(C)CC[C@]4(C[C@H](O)[C@@H](C)[C@@H]([C@@H](C)/C=C(\C)C(=O)[C@H](C)C[C@H](C)C(=O)O)O4)O3)O[C@]3(O[C@@H]([C@H]4O[C@@](O)(CO)[C@H](C)C[C@@H]4C)C[C@@H]3C)[C@@H]2C)O[C@@H]1C` gave an inhibition of -0.12% and -0.31%.
`C/C=C1/C[C@@H](C)[C@@](C)(O)C(=O)OCC2=CCN3CC[C@@H](OC1=O)[C@@H]23` has an inhibition of 0%.
`c1csc(-c2ccc(-c3cccs3)s2)c1` gave an inhibition of -2%.
`CC[C@@]1(O)C(=O)OCc2c1cc1n(c2=O)Cc2cc3c(OC)cccc3nc2-1` gave an inhibition of -30%.

Sample 3 — cell line: mouse MPNST tumor cells; method: high-content immunofluorescence imaging; item: nuclear SOX9; concentration: 10 µM; time: 12 h; notes: mean of 2 replicates; reference: DMSO control; direction: higher = more nuclear SOX9
For `C1CCc2nnnn2CC1`, “nuclear SOX9 intensity” read 99.2 % of DMSO.
Under “nuclear SOX9 intensity”, `Cc1cccc(C)c1NC1=NCCCS1` is recorded as 114 % of DMSO.
Under “nuclear SOX9 intensity”, `O=C(Oc1ccc(Br)cc1)N1CCN2CCC1CC2` is recorded as 94.5 % of DMSO.
`COc1ccc(CN2CCNCC2)c(OC)c1OC` — result for “nuclear SOX9 intensity”: 150 % of DMSO.
`CCC(COC(=O)c1cc(OC)c(OC)c(OC)c1)(c1ccccc1)N(C)C` (centres unmarked) — result for “nuclear SOX9 intensity”: 98 % of DMSO.
Under “nuclear SOX9 intensity”, `O=C1NC(=O)c2c1c1c3ccccc3[nH]c1c1[nH]c3ccccc3c21` is recorded as 103 % of DMSO.
For `C[C@]12CCC(=O)C(O)=C1CC[C@@H]1[C@@H]2CC[C@]2(C)C(=O)CC[C@@H]12`, “nuclear SOX9 intensity” read 99.2 % of DMSO.
`NCCc1c[nH]c2ccc(O)cc12` — result for “nuclear SOX9 intensity”: 105 % of DMSO.
`CC(=O)N(C)c1cccc(-c2ccnc3c(C(=O)c4cccs4)cnn23)c1` — result for “nuclear SOX9 intensity”: 109 % of DMSO.
For `FC(F)(F)c1cccc(C2=CCN(CCc3ccc4ccccc4c3)CC2)c1`, “nuclear SOX9 intensity” read 91.2 % of DMSO.
Under “nuclear SOX9 intensity”, `C[C@@H]1CN(Cc2ccc(F)cc2)CCN1C(=O)COc1ccc(Cl)cc1NC(N)=O` is recorded as 84.5 % of DMSO.
`c1ccc2c(c1)OCC(C1=NCCN1)O2` (centres unmarked): “nuclear SOX9 intensity” 103 % of DMSO.
`Clc1cccc(SC2CCNCC2)n1` — result for “nuclear SOX9 intensity”: 98.3 % of DMSO.
For `O=C1CN=C(c2ccc[nH]2)c2cc(Cl)ccc2N1`, “nuclear SOX9 intensity” read 113 % of DMSO.

Sample 4 — observed: enzyme activity; action: inhibitor; concentration: 0.5 µM; reference: control
Compound: COC[C@H]1OC(=O)c2coc3c2[C@@]1(C)C1=C(C3=O)[C@@H]2CCC(=O)[C@@]2(C)C[C@H]1OC(C)=O
Ephrin type-A receptor 7 (EPHA7, Homo sapiens, UniProt Q15375) — remaining activity: 89.4%.
Fibroblast growth factor receptor 4 (FGFR4, Homo sapiens, UniProt P22455) — remaining activity: 88.9%.
Serine/threonine-protein kinase Sgk1 (SGK1, Homo sapiens, UniProt O00141) — remaining activity: 101%.
The remaining activity was 99.6% (Aurora kinase C (AURKC, Homo sapiens, UniProt Q9UQB9)).
The remaining activity was 92.8% (Glycogen synthase kinase-3 alpha (GSK3A, Homo sapiens, UniProt P49840)).
Cytoplasmic tyrosine-protein kinase BMX (BMX, Homo sapiens, UniProt P51813) — remaining activity: 92.3%.
The remaining activity was 101% (Tyrosine-protein kinase CSK (CSK, Homo sapiens, UniProt P41240)).
For SRSF protein kinase 3 (SRPK3, Homo sapiens, UniProt Q9UPE1): remaining activity read 95.3%.
It gave 29.5% for remaining activity (Myosin light chain kinase, smooth muscle (MYLK, Homo sapiens, UniProt Q15746)).
Protein kinase C gamma type (PRKCG, Homo sapiens, UniProt P05129) — remaining activity: 114%.
The remaining activity was 93.6% (Macrophage colony-stimulating factor 1 receptor (CSF1R, Homo sapiens, UniProt P07333)).
It gave 101% for remaining activity (G protein-coupled receptor kinase 6 (GRK6, Homo sapiens, UniProt P43250)).

Repeated from above (sample 1):
For 15 min: viable cells read 3500 CFU/mL and 3300 CFU/mL and 3900 CFU/mL.
For 30 min: viable cells read 2000 CFU/mL and 1700 CFU/mL and 1500 CFU/mL.
0 min — viable cells: 4.4e+08 CFU/mL and 4e+08 CFU/mL and 3.9e+08 CFU/mL.
It gave 600 CFU/mL and 800 CFU/mL and 400 CFU/mL for viable cells (300 min).
